{"data": "Measurements collected from several papers", "note": "Lines come from different studies, so protocols differ. Numbers after ± are the reported error."}
{"Compound": "COc1ccc(Nc2nc(Nc3ccc(OCCOCCOCC[18F])cc3)ncc2Br)cc1", "test system": "ICR mice, S180 tumour", "conditions": "intravenous, 370 kBq, 5 min", "how to read": "reference: tumour over muscle", "endpoint": "uptake ratio", "value": 0.99}
{"Compound": "CN([O-])C(=O)CN1CCNCCN(CC(=O)N(C)[O-])CC1.[89Zr+4]", "test system": "mouse, spleen", "conditions": "intravenous, 4 h", "endpoint": "tracer uptake", "value": "0.1 %ID/g"}
{"Compound": "Cc1cc(-c2ccc(C(=O)[C@@H]3CCCC[C@H]3C(=O)Nc3cnn4c3C(=O)NCC4)cc2)[nH]n1", "test system": "human, urine", "conditions": "oral, 200 mg, 120-144 h", "how to read": "reference: dose", "endpoint": "recovery of radioactivity per interval", "value": "0.01%"}
{"Compound": "C[N+](C)(CCOCCOCCOCCNC(=S)Nc1ccc(C[C@H]2CN(CC(=O)[O-])CCN(CC(=O)[O-])CCN2CC(=O)[O-])cc1)C[c-]1cccc1.[64Cu+2].[Fe+2].c1cc[cH-]c1", "test system": "nude mice, BxPC-3 xenograft", "conditions": "4 h, pretargeted", "endpoint": "tumour uptake", "value": "1.7 ± 1.2 %ID/g"}
{"Compound": "CC(CCC(=O)NCC(=O)O)C1CCC2C3CCC4CC(OC5OC(C(=O)O)C(O)C(O)C5O)CCC4(C)C3CC(O)C12C (centres unmarked)", "test system": "human, plasma", "conditions": "baseline", "endpoint": "mean daily plasma concentration", "value": "0.108 ± 0.024 µM"}
{"Compound": "Cc1nc(N)nc2c1C(=O)N[C@@H](c1ccc(F)cc1-c1cccc(O[11CH3])n1)C2", "test": "ex vivo biodistribution", "test system": "mice, U87 subcutaneous xenograft, spleen", "conditions": "60 min post-injection, baseline, vehicle pre-treatment", "endpoint": "SUV", "value": "5.7 ± 0.6"}
{"Compound": "CC[C@H](C)[C@@H](C(=O)N[C@@H](CC(C)C)C(=O)N[C@@H](CO)C(=O)N[C@@H](CO)C(=O)N[C@H](C(=O)N[C@@H](CCC(=O)O)C(=O)N[C@H](C(=O)NCC(=O)N[C@@H](CO)C(=O)N[C@@H](CC(N)=O)C(=O)N[C@H](C(=O)N1C[C@H](O)C[C@H]1C(N)=O)[C@@H](C)O)C(C)C)[C@@H](C)O)N(C)C(=O)[C@H](C)NC(=O)CN(C)C(=O)[C@H](Cc1ccccc1)NC(=O)[C@H](CO)NC(=O)[C@H](CO)NC(=O)[C@H](CCCNC(=N)N)NC(=O)[C@H](CCC(N)=O)NC(=O)[C@H](CC(C)C)NC(=O)[C@H](Cc1ccccc1)NC(=O)[C@H](Cc1c[nH]cn1)NC(=O)[C@H](C)NC(=O)[C@H](CC(C)C)NC(=O)[C@H](CCCNC(=N)N)NC(=O)[C@H](CCC(=O)O)NC(=O)[C@@H](NC(=O)[C@H](C)NC(=O)[C@@H]1CSSC[C@H](NC(=O)[C@H](CCCNC(=N)N)NC(=O)CC[C@H](NC(=O)CCCCCCCCCCCCCCCCCCC(=O)O)C(=O)O)C(=O)NCC(=O)N[C@@H]([C@@H](C)O)C(=O)N[C@@H](C)C(=O)N[C@@H]([C@@H](C)O)C(=O)N1)[C@@H](C)O", "test": "RP-HPLC", "test system": "aqueous solution", "conditions": "7 days, pH 7.5, 40 °C", "endpoint": "degradation", "value": "10%"}
{"Compound": "Cc1noc(C)c1Cn1cc(N2C(=O)CN(Cc3cccc(O[C@@H]4O[C@H](C(=O)O)[C@@H](O)[C@H](O)[C@H]4O)c3)C2=O)cn1", "test system": "Sprague-Dawley rat, male", "conditions": "oral, 30 mg/kg of parent drug, 0.5 h", "endpoint": "plasma concentration", "value": "8050 ng/mL"}
{"Compound": "Cc1nc(N)nc2c1C(=O)N[C@@H](c1ccc(F)cc1-c1cccc(OCC[18F])n1)C2", "test": "ex vivo biodistribution", "test system": "C57BL/6 mice, muscle", "conditions": "intravenous, 1 MBq, 30 min", "endpoint": "SUV", "value": "0.79 ± 0.03"}
{"Compound": "COc1ccc(N2CCOCC2)c2sc(NC(=O)c3ccnc(CN4CCCC4)c3)nc12", "test": "in situ salt screening", "test system": "0.1 M hydrochloric acid", "endpoint": "pH of saturated solution", "value": 1.33}
{"Compound": "CN1CCC[C@]1(C)/C=C/S(=O)(=O)NC(=O)Nc1c2c(cc3c1CCC3O)CCC2 (some centres unmarked)", "test system": "human, plasma", "conditions": "oral, 50 mg twice daily of parent drug, day 1, metabolite of dosed drug", "endpoint": "AUC(0-tau)", "value": "227 µg·h/mL"}
{"Compound": "CCCCN1C(=O)c2cccc3c(NCCCCCCCCN4CCOCC4)ccc(c23)C1=O", "test system": "acetonitrile", "endpoint": "absorption maximum", "value": "432 nm"}
{"Compound": "Cc1onc(-c2ccccc2)c1-c1ccc(S(=O)(=O)Cl)cc1", "test": "chemical stability, HPLC-MS", "test system": "borate buffered saline", "conditions": "pH 10.2, no N-acetyl-lysine", "endpoint": "degradation rate constant", "value": "1.9 h⁻¹"}
{"Compound": "CC(=O)N([O-])CCCCCNC(=O)CCC(=O)N([O-])CCCCCNC(=O)CCC(=O)N([O-])CCCCCN.[89Zr+4]", "test system": "mouse plasma", "conditions": "7 d, 37 °C", "endpoint": "intact complex", "value": "78.4 ± 2%"}
{"Compound": "COc1cccc(OC)c1-c1cc(C(=O)NC2(C(=O)O)C3CC4CC(C3)CC2C4)nn1-c1ccc(C(=O)N(C)CCCN(C)C(=O)[C@H](CCCCNC(=O)[C@H](CC(C)C)NC(=O)C2OC2C(=O)O)NC(=O)CN2CCN(CC(=O)[O-])CCN(CC(=O)[O-])CCN(CC(=O)[O-])CC2)cc1C(C)C.[177Lu+3] (mixture of isomers)", "test system": "mouse, HT-29 xenograft", "conditions": "168 h post injection, biodistribution", "how to read": "reference: tumour over liver uptake", "endpoint": "tumour-to-liver ratio", "value": 1.22}
{"Compound": "Cc1ncsc1-c1ccc(CNC(=O)[C@@H]2C[C@@H](O)CN2C(=O)[C@@H](NC(=O)COCC(C)(COCCOCCOCCNC(=O)C[C@@H]2N=C(c3ccc(Cl)cc3)c3c(sc(C)c3C)-n3c(C)nnc32)COCCOCCOCCNC(=O)C[C@@H]2N=C(c3ccc(Cl)cc3)c3c(sc(C)c3C)-n3c(C)nnc32)C(C)(C)C)cc1", "test system": "C57BL/6 mouse male, plasma", "conditions": "intravenous, 5 mg/kg", "endpoint": "clearance", "value": "3.02 mL/min/kg"}
{"Compound": "COc1cccc(OC)c1-c1cc(C(=O)NC2(C(=O)O)C3CC4CC(C3)CC2C4)nn1-c1ccc(C(=O)N(C)CCOCCOCCN(C)C(=O)[C@H](CCCCNC(=O)[C@H](CC(C)C)NC(=O)C2OC2C(=O)O)NC(=O)CN2CCN(CC(=O)[O-])CCN(CC(=O)[O-])CCN(CC(=O)[O-])CC2)cc1C(C)C.[177Lu+3] (mixture of isomers)", "test system": "mouse, HT-29 xenograft", "conditions": "72 h post injection, biodistribution", "how to read": "reference: tumour over liver uptake", "endpoint": "tumour-to-liver ratio", "value": 2.05}
{"Compound": "O=[N][Fe]1([N]=O)[S](CCO)[Fe]([N]=O)([N]=O)[S]1CCO", "test system": "aged C57BL/6JNarl mice on Western diet", "conditions": "po, 2.65 mg/kg daily, 16 weeks", "endpoint": "serum creatinine", "value": "0.32 ± 0.04 mg/dL"}
{"Compound": "CC1Cc2ccccc2N1C(=O)CN1CCN(Cc2ccccc2)CC1 (centres unmarked)", "test system": "female NMRI mice", "conditions": "intraperitoneal, 10 mg/kg free base, 15 min", "how to read": "reference: brain over blood", "endpoint": "tissue/plasma ratio", "value": 10.3}
{"Compound": "CN1CCC[C@]1(C)/C=C/S(=O)(=O)NC(=O)Nc1c2c(cc3c1CC(O)C3)CCC2 (some centres unmarked)", "test system": "human, plasma", "conditions": "oral, 50 mg twice daily of parent drug, day 14, metabolite of dosed drug", "endpoint": "AUC(0-tau)", "value": "55.1 µg·h/mL"}
{"Compound": "O=C(Nc1cnccc1-c1ccc([18F])nc1)c1ccnc(NC(=O)C2CC2)c1", "test": "PET imaging", "test system": "FVB/NJ mice, both sexes, liver", "conditions": "intravenous, 60 min", "endpoint": "median SUV", "value": 8.04}
{"Compound": "C/C(N)=N/C(=N\\S(=O)(=O)c1ccc(C(F)(F)F)cc1)N1C[C@H](c2ccccc2)C(c2ccc(Cl)cc2)=N1", "test system": "beagle dog, plasma", "conditions": "oral, 12 mg/kg", "endpoint": "half-life", "value": "18.1 h"}
{"Compound": "CCCCN1C(=O)c2cccc3c(NCCCCCN4CCOCC4)ccc(c23)C1=O", "test system": "acetonitrile", "endpoint": "absorption maximum", "value": "432 nm"}
{"Compound": "Cc1c(Cc2cc(Cl)cc(O[C@H](C)C(=O)O)c2)c2ccc(C(=O)N[C@@H](C)c3ccc(C(C)(C)C)cc3)cc2n1CC(C)C", "test": "metabolic stability", "test system": "mouse, liver microsomes", "endpoint": "half-life", "value": "0.422 h"}
{"Compound": "C=C(NC(=O)c1csc(-c2nc3c(cc2O)-c2nc(cs2)C(=O)NC(C(C)O)C(=O)NC(=C(C)OC)c2nc(cs2)C(=O)NC2c4nc(cs4)C(=O)NC(COC(=O)c4c5c6c(cccc6n4O)COC(=O)C(OC4CC(C)(O)C(N(C)C)C(C)O4)C2OC5)c2nc-3cs2)n1)C(N)=O (centres unmarked)", "test system": "Sprague-Dawley rat, female, plasma", "conditions": "intravenous infusion, 6 mg/kg single dose", "endpoint": "MRT(0-last)", "value": "1.16 h"}
{"Compound": "CCCCN1C(=O)c2cccc3c(NCCCN4CCOCC4)ccc(c23)C1=O", "test system": "dichloromethane", "endpoint": "absorption maximum", "value": "436 nm"}
{"Compound": "O=C(Nc1cnccc1-c1ccc([18F])cc1)c1ccnc(NC(=O)C2CC2)c1", "test system": "mice, transgenic, GSK-3β, early-stage, muscle", "conditions": "intravenous, dose not given, 120 min, with: tariquidar 15 mg/kg i.v. pre-dose", "endpoint": "SUV", "value": 0.2}
{"Compound": "CCCCN1C(=O)c2cccc3c(NCCCCCCN4CCOCC4)ccc(c23)C1=O", "test system": "dichloromethane", "endpoint": "fluorescence quantum yield", "value": 0.99}
{"Compound": "CCCC[C@H](NC(=O)CNC(=O)CNC(=O)[C@H](CCCCNC(=O)[C@H](CC(=O)O)NC(=O)C(C)c1ccc(CC(C)C)cc1)NC(=O)CN1CCN(CC(=O)O)CCN(CC(=O)O)CCN(CC(=O)O)CC1)C(=O)N[C@H]1CC(=O)NCCCC[C@@H](C(N)=O)NC(=O)[C@H](Cc2c[nH]c3ccccc23)NC(=O)[C@H](CCCNC(=N)N)NC(=O)[C@@H](Cc2ccccc2)NC(=O)[C@H](Cc2c[nH]cn2)NC1=O (some centres unmarked) [lutetium-177 labelled]", "test system": "C57 mice, tumour", "conditions": "2 h", "how to read": "reference: lung", "endpoint": "tumour-to-tissue ratio", "value": 26.8}
